Experimental data pooled from the literature.
Numbered parts are unrelated; each lists some results of a single study. Positions count from the first letter of the parent shown.

Sample 1 — method: EMSA with sequencing; form: double-stranded DNA, one strand shown; sample: in vitro; concentration: 10 and 20 nM; reference: negative control set to 0; direction: higher = stronger binding
Target: Hepatocyte nuclear factor 3-alpha (Foxa1, Mus musculus, UniProt P35582, residues 1-468, full length assumed)
Setting: whole designed probe, mean of two concentrations, ends assumed
Shared flanks, not repeated: GTGAGCGGTGCCCATTGATGGGGAAC … TTTCACTGGGATCGTGGGGAC
Residues (chain): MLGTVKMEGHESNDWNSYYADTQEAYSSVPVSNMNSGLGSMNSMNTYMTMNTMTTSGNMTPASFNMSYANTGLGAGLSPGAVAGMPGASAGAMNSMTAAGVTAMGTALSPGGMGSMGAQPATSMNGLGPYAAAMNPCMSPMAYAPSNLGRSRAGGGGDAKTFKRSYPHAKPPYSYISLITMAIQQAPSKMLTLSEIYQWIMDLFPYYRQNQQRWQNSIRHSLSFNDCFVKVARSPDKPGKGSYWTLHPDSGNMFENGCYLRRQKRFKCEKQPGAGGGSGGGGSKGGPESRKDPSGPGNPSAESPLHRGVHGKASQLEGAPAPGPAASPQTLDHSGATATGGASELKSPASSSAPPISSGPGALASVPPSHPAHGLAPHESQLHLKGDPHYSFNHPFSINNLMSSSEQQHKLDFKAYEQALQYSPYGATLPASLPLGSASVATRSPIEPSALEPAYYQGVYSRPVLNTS
Sequence	normalised bound fraction [ratio]
TGGCTGGCATCAAGGACTTTGGCTCTGGGGGTGTTCCCAGTCAACAGTTAACTAAAGACCAGGCCACTGTGCCTAGACTGTTTGTGCATTTGTGCAAACAATATGGGTTCATGCTGAACACCTGCGTTCCTTCTGAGAGTCTGAAAAGTTTAGAACATGCCAGGCAGAGGGTGTGTACCTGACCAACCCCCAA	0.344
ATCCACGAACCTGGCCCTGTCTGGTAACCACAGTGAACCATCGCAAGATACAGCACTATGTGCCCATAATGACTCACGTTGGGCTGGAAATGTGTCAACACTGGCACATCCTCAGGGACACGGAAGTGTACTTGTTTTTGGAGAGGGACTAGACCTTCATCCTTGAGGTGAAGAAGATTTTCTCTCCAGGGTG	0.0339
ACTATTTTATTCAGGTTGATTTGTTTAATATTTGCTAAAGGCCAGTTCTTTAAGCTATGACACATAATAAATCCCAAATGGCAGTACCTCATTGTTTACTTAGCTTTTGTACTTATATTTCTCAGAGGAAGAACCACTACTGTAAATTGTAAATAGCCAATACATAATTGTATTGTATGCAAATCTGTGACTG	0.546
GAAGGAAATAATGGAGCCAACCATGCATATAACCTCAGGGAGAACATTCTAGGTAGAGGGAACAGCAAGTGCAAAGGCCCTGAAGTGGGGGTTTGTTTACCTTCGTTGCACAATTGCACACAGGCCAGTACAATTGGAATGGATGGGAAATGTAAAAGAGAGAAGTTGAAAAGGCCAGGTGCAGTGGCTCATG	0.41
TGCACCTATATAAAATATAGGTTTATTGTTCTTTGTGTCAATGGCATGTATTATTTTGGCTATTCTAGAAAAGAAATTACGTTGGAATTCCAATGTAAACATGTTTGTGTGAATCAGTAACCTTCTCTTTCTTTTGTATGTCATAAGAAAGCAACAAATGAGTTGTTAAATGCTAAAATTAAACACCATTTTA	0.323
CTCATTCCTTGCTTCCGCCAATAATCTGACTAGTAAAGAAGTCACTGCATGCCACAAAGAGTGACTCAGGACTTCCTCAACAAGGAAGTTATTTATTTACTTATTTAATATATGAGTGTCACAGATGCAAATTCCATCTTGAGAATACCAACTCCTGATGCCAACTGATTGTCAGTCATGGCTACAACAGGAG	0.463
ATCTTCCCCCTCTTCCTTGCCCCACCAGCTCACCTTCCCGGGTTATTTGCAGATAGGAAAATAAATAAAGCCGGCATTCGTTAACCCTCTTCTGGCGCAAACTGCTGTTTGCTCTGGTCCTTTGGCGACGCCAGGCTCCGGGAGAGCAGATGAATCATGAAGCACCGTGTCAGGGCCATGATCCGGGGTGGCC	0.38
CATTAGAGTCAAAGTTGTTAAGGGGAGCTAGTCATAGCTACCACGTGGCCAGGCATGTGGAACCAGACACCAGGCACACATCATGAATCATCATATTTACTTTAAATAATGCTGACAACCTAGTTCATAGTGACACACTACTTGAGATATATAGAATAACATTATTACCCAGTAAGTATGTGAACATTCCGAT	0.293

Sample 2 — target: UBE2W UBC core domain (UniProt Q96B02); method: yeast two-hybrid; sample: yeast; setting: mostly zero background; reference: not given; direction: higher = stronger interaction
B1: RNF150 RING domain (UniProt Q9ULK6); chain DKETESDFDNCAVCIEGYKPNDVVRILPCRHLFHKSCVDPWLLDHRTCPMCKMNILKALGIP
B2: ANKIB1 RING domain (UniProt Q9P2G1); chain LSPGDLDTSLCDICMCSISVFEDPVDMPCGHDFCRGCWESFLNLKIQEGEAHNIFCPAYDCFQLVPVDIIE
B3: RNF149 RING domain (UniProt Q8NC42); chain EKGIDVDAENCAVCIENFKVKDIIRILPCKHIFHRICIDPWLLDHRTCPMCKLDVIKALGYW
B4: RNF5 RING domain (UniProt Q99942); chain ERGGAGATFECNICLETAREAVVSVCGHLYCWPCLHQWLETRPERQECPVCKAGISREKVVP
B5: NSMCE1 RING domain (UniProt Q8WV22); chain RETYPDAVKICNICHSLLIQGQSCETCGIRMHLPCVAKYFQSNAEPRCPHCNDYWPHEIPKV
B6: TRIM38 RING domain (UniProt O00635); chain STKKMMEEATCSICLSLMTNPVSINCGHSYCHLCITDFFKNPSQKQLRQETFCCPQCRAPFHMDSLRP
B7: RNF14 RING domain (UniProt Q9UBS8); chain IKCFNSKLFLCSICFCEKLGSECMYFLECRHVYCKACLKDYFEIQIRDGQVQCLNCPEPKCPSVATPGQVK
B8: TRIM10 RING domain (UniProt Q9UDY6); chain SVTSLADEVNCPICQGTLREPVTIDCGHNFCRACLTRYCEIPGPDLEESPTCPLCKEPFRPGSFRP
Residues (chain): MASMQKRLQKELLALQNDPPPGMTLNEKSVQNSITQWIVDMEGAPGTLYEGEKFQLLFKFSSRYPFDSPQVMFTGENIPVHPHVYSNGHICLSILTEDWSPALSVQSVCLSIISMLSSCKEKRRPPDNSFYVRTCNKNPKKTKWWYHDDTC
Sequence	lacZ reporter activity
B1 (RNF150 RING domain)	8860
B2 (ANKIB1 RING domain)	0
B3 (RNF149 RING domain)	0
MANWVFCNRCFQPPHRTSCFSLTNCGHVYCDACLGKGKKNECLICKAPCRTVLLSK (RNF212 RING domain (UniProt Q495C1))	0
B4 (RNF5 RING domain)	0
B5 (NSMCE1 RING domain)	0
B6 (TRIM38 RING domain)	0
B7 (RNF14 RING domain)	0
B8 (TRIM10 RING domain)	0
SYEDKSNDFVCPICFDMIEEAYMTKCGHSFCYKCIHQSLEDNNRCPKCNYVVDNIDHLY (COP1 RING domain (UniProt Q8NHY2))	0
FLKKLEQSFMCVCCQELVYQPVTTECFHNVCKDCLQRSFKAQVFSCPACRHDLGQNYIMI (UHRF2 RING domain (UniProt Q96PU4))	9620

Sample 3 — target: CCNE1, cyclin fold, Cln2 fusion (human); method: yeast growth competition, sequencing; sample: yeast; setting: strong parent motif; reference: not given; direction: higher = stronger binding
Parent: viral docking peptide; KGVKRKLFAEDSS; partner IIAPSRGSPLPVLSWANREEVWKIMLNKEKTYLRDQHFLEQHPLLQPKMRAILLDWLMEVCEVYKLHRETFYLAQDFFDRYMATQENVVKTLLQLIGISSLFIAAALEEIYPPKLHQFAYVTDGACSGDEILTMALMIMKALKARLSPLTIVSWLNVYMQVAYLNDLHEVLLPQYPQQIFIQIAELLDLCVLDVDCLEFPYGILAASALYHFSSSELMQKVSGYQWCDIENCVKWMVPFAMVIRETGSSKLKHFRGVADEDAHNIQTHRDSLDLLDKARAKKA
Substitution	normalised enrichment score
G2I	6.06
R5T	0.947
S12R	7.52
E10C	6.72
K4F	3.54
G2C	7.57
D11S	7.56

Sample 4 — method: protein binding microarray; form: double-stranded DNA, one strand shown; sample: in vitro; concentration: not given; reference: not given; direction: higher = stronger binding
Target: Histone acetyltransferase KAT6A, winged helix 1, GST fusion (KAT6A, Homo sapiens, UniProt Q92794, residues 1-85)
Setting: 8-mer, flanks averaged, mean of 2 arrays, mostly near background
Target sequence (chain): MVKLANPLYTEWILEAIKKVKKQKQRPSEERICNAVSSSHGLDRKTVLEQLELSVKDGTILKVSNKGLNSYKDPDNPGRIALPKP
Sequence	E-score
TACTTTAA	-0.067
ACTAACAT	-0.116
CTCCGAAA	-0.0958
GATAGTCA	-0.0201
ATGAAGCA	-0.291
CCATCAAG	-0.144
AATCTTCC	-0.0078
ATCGTGGA	-0.215

A few entries again (sample 1):
Sequence	normalised bound fraction [ratio]
ATCTTCCCCCTCTTCCTTGCCCCACCAGCTCACCTTCCCGGGTTATTTGCAGATAGGAAAATAAATAAAGCCGGCATTCGTTAACCCTCTTCTGGCGCAAACTGCTGTTTGCTCTGGTCCTTTGGCGACGCCAGGCTCCGGGAGAGCAGATGAATCATGAAGCACCGTGTCAGGGCCATGATCCGGGGTGGCC	0.38
ACTATTTTATTCAGGTTGATTTGTTTAATATTTGCTAAAGGCCAGTTCTTTAAGCTATGACACATAATAAATCCCAAATGGCAGTACCTCATTGTTTACTTAGCTTTTGTACTTATATTTCTCAGAGGAAGAACCACTACTGTAAATTGTAAATAGCCAATACATAATTGTATTGTATGCAAATCTGTGACTG	0.546
CTCATTCCTTGCTTCCGCCAATAATCTGACTAGTAAAGAAGTCACTGCATGCCACAAAGAGTGACTCAGGACTTCCTCAACAAGGAAGTTATTTATTTACTTATTTAATATATGAGTGTCACAGATGCAAATTCCATCTTGAGAATACCAACTCCTGATGCCAACTGATTGTCAGTCATGGCTACAACAGGAG	0.463
